Published values of several laboratories.
Numbered parts are unrelated; each lists some results of a single study. Positions count from the first letter of the parent shown.

Series 1
Target: Phosphate system positive regulatory protein PHO4, full length, GST-tagged (PHO4, Saccharomyces cerevisiae, UniProt P07270, residues 1-312)
Technique: competition protein-binding microarray
Molecule type: double-stranded DNA, one strand shown
Sample: in vitro
Tested at: 2 µM
Setting: whole 60-bp probe, lowest competitor level
Added: Cbf1 competitor, 0.05 µM
Direction: higher = stronger binding
All sequences stand within: … GTCTTGATTCGCTTGACGCTGCTG
Construct (chain): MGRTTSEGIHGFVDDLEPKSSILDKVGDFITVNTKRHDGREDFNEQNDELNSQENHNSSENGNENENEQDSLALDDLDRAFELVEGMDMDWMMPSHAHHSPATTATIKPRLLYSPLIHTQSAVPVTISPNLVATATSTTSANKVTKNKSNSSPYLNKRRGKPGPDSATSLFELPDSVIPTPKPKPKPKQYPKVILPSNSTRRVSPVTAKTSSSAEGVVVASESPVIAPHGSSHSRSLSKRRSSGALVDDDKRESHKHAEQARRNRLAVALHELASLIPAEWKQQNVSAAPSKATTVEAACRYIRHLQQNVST
Strand	fluorescence intensity [a.u.]
CCTGTTCTACATGTACTCGTGCTTTCTTTATTGCTT	10300
CTTCTGTAAATTTGGACAGTGGGTGGACGCGCCCCG	3910
AATGCGGCCCAAAAGCACGTGTGGAAAAAAAGTATG	17300
AAATTACTAAGTTGTCACTAGACTTACCCCGTATGA	2940
CGTCCTAGTGATTGTGCCGTGGGTGCCATGAGGAAG	8090
TGCGCAACAACTTGTCACCCTACTTTATGTCTAGAA	3560
TGCGCAACAACTTGCCGCGTGGGTGTATGTCTAGAA	11300
TCTCTAGGTGGTTGGGCAAATCTATCAATATTCTTG	2920
TTTTTTTGGCTCCATCACGCTCGTCAGTTGAGCTCG	4670
GAGTGGTAGGGAAAGCACGTGTGGATTATTTACGAT	17500
CGGGGTTAAGTTTTTCACGTGGGGTGCTTGCAGCAG	15200
AAAGCGGTAATTTGTCACAATACTTCACATATCTAT	3350
TCCAGCAGAACCAGCCATGTGCGAAGAAAAACAATT	10000
GAGTGTTGTTGGGCGCACATGTCGATTTCATAATAG	13600
TTTTTCGATTTTGTTTTTGTGTCGCAAAATAACTAA	2920
GTCGACCATTTTGCCACCGTGTCTGTGTGCTCGAGC	6390
CTAACGAAGGTTTGCTCCGTGGGTGACAAGCCAAGT	5670
GTCTTGTCTCATTGTAACGTGGGTGTCCCCACTTCA	9310
TGCGCAACAACTTGGAGTGTGGGTGTATGTCTAGAA	5770

Series 2
Target: Interferon regulatory factor 7, full length, phosphomimetic (IRF7, Homo sapiens, UniProt Q92985, residues 1-503, S471D/S472D/S475D/S476D/S477D/S483D/S484D/S487D)
UniProt Q92985, sequence (whole entry, unmodified, looked up): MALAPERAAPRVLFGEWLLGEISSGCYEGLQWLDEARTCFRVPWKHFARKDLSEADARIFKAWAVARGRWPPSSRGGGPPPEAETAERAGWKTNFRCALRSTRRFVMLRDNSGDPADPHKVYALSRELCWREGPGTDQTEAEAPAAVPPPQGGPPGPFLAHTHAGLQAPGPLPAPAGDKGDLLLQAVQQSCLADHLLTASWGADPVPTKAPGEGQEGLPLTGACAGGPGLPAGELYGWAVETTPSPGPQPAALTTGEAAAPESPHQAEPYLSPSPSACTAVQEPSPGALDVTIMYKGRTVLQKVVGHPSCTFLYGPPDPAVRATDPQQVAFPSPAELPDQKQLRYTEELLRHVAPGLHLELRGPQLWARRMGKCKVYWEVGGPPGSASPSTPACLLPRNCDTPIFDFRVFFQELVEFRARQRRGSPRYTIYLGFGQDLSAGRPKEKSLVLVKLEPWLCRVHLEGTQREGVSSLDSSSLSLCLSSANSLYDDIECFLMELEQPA
Technique: protein-binding microarray
Molecule type: double-stranded DNA, one strand shown
Sample: in vitro
Tested at: 2200 nM top
Setting: 60-bp whole probe
Added: salmon DNA 0.4 mg/ml
Reference: random background probes
Direction: higher = stronger binding
All sequences stand within: GCCTAGCAC … GTCTTGATTCGCTTGACGCTGCTG
Strand	fitted relative affinity [z-score]
GTAGATTTCAGACTGGATTAGTGCTAG	0.125
ACTGCTCTGTTGCCTGGTCCTGTGCTA	1.33
GACGATTTCCTTTTCCTGACGTGCTAG	3.16
TCATCTCGGAGATCTCGAACTGTGCTA	0.284
TTAGGTATCGACTTTGGGTTAGTGCTA	0.304
TCAGTTTTCTTTTCATTACTGTGCTAG	5.57
TTTGCTTTCATTTATTTACTGTGCTAG	3.38
TTGTGTCTGGGCTTTTTCCCCGTGCTA	0.134
CTTTAACTCATTCTCTGTTTGTGCTAG	1.59
TTAGATATCGGTCTCGATTAGTGCTAG	0.443
TTAGGACTTGGTATCGGTTAGTGCTAG	0.468
TTGGCTTTCCTTTATGTCCTGTGCTAG	1.76
TCAAGGGTCTGTTTGGGACTGTGCTAG	-0.435
GACGGAGTGGGGTTTCGGGACGTGCTA	0.719
GACGGTTCCTGTTTCGGGACGTGCTAG	3.37
TCATTTTTCTAATTGAAACTGTGCTAG	2.5

Series 3
Target: CCNF, cyclin fold, Cln2 fusion (human)
Technique: yeast growth competition, sequencing
Sample: yeast
Setting: strong parent motif
Reference: not given
Direction: higher = stronger binding
Starting sequence: PKMYT1 docking peptide (human); SFEPRNLLSLFED
Variant	normalised enrichment score
S9D	0.282
D13A	1.73
L10A	-0.127
R5A L7A	-0.826
S9V	1.35
D13C	1.18
L7M	-1.21
L7F	-1.24
F2Y	2.19
E3W	1.49
L8M	2.08
S9L	0.946
F11G	-0.742
S1Y	1.63
L8F	1.19
F2M	0.779
L10P	-1.07
E12N	0.819
D13L	1.95
D13H	1.25
L7S	-1.35
F2T	1.32
R5I	1.06
S1R	2.28
L8W	-0.165

Series 4
Target: RNA binding protein fox-1 homolog 2, RRM domain, GST-SBP tag (RBFOX2, Homo sapiens, UniProt O43251-10, residues 100-194)
Technique: RNA Bind-n-Seq
Molecule type: RNA
Sample: in vitro
Tested at: 365 nM
Setting: natural RNA segment, single round, ends assumed
Reference: no-protein control
Direction: higher = stronger binding
All sequences stand within: GGGAGUUCUACAGUCCGACGAUC … UGGAAUUCUCGGGUGCCAA
Residues (chain): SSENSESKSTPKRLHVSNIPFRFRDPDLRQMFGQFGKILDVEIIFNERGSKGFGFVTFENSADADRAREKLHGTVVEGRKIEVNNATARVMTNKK
Strand	RBNS enrichment (R)
CUCUAGAUUUCCAAUGACGAUACCCUGGCUGAAUAGGCUUUUCUCUUCCUUGGGCCUUUACUUCUUUUCUUCCUCCUUGGUUUCAGUUCCCAUGUGCUAUCAUUAUAAUC	0.622
AUUACAGAAAGACACGGCACUGCCGUGCACACCCAUGCUGCUUAGAAGCCUAAGCCUCUGCCUUCAAGCUGGAUCCUGUGCAGGGUGGGCAGGCAAGAACUCAGACAUGC	0.328
UUGAAAACGUUAUUUAUAAUGAAAUCAACUAAAACUAUUUUUGCUAUAAGUUCUAUAAGGUGCAUAAAACCCUUAAAUUCAUCUAGUAGCUGUUCCCCCGAACAGGUUUA	0.827
AUCUCAGCCAGAGGCCAGAUGUUCUUAGAACUGACUUGACCUGAGCAGACCCCCUAACCCUUCAGACAGGCAGUGUUUAUUUAAUGCGUAGAGUGCAGAGGGGCUCUUUU	0.301
UCUUAAAUUAUUAUAUGUUUGGACAAUUAGCAACAAGUCAGAUAGUUAGAAUCGAAGUUUUUCAAAUCCAUUGCUUAGCUAACUUUUUCAUUCUGUCACUUGGCUUCGAU	0.686
ACAGAUGAUCUGUUCACUUGAAGGUGAUUUUUAUCUUGUAGUCAGUGUUACAAGAAAAGGCUGGAAGCAUUUCUACUAAGCGAGGCCCUUUACAGUGACCUCCAGGCAAC	0.247
AGACUAGCUUGCCUUGGUUUUGAUGUGUGUGGCCUCAGACGUGAUCAUUUCCCAUCCCGCUGUGUCUCUGGGUCUCCCUCCUCCCCAUCUCCACCCCCCAAGAGCCAUUG	1.99
GAAACAGCUGCCUUAGCUUCAGGAACCUUGAGUACUGUGGGCAAUUUAGAAAACGGAAAUGCAGUUUGAAAUUCUGAAUUUGCAAAGUACUGUAACAGUAAUUUAUAGUA	1.1
CUGCCUCUUUAGGAAGUGAGGGUUUCUUGUUCUCCUUUAAAAAUCAGUCUCUAGACUACGGCCAUCAGGAAUCUACCCUCGCCCACCUGACCCUGCGAGGACACGGGCAC	0.397
CCUGCCUGGGUGUCACUUUCUAGACAGUAAGGCGCUCCACUGCUUGCUGUCUGAGAUAUCCUUCAUAGUAUUCCAUGGCUCCCAUACUGCAGUCUAGUUAAGCAAAGAAC	0.284
GUCAUAAGCACUACCACUAAGGACUCUCUGGAGGACUCCUCAGUAUCAUCUGCUCCAGGAAGCCCCCUAGACUACCUCCUGAGUCUGGACAAAGCCUCCUGAUUCUACCU	0.601
UCCAUUGUCCUUGUAGUUUCUUCCCUCCUGUUCUCUGGUUAUAGCUGGUCCCAGGUCAGCGUGGGAGGCACCUUUGGGUUCCCAGUGCCCAGCACUUUGUAGUCUCAUCC	0.453

Series 5
Target: CEBPD, bZIP domain (human)
Technique: DHFR protein complementation
Sample: yeast
Setting: single substitutions, most at no-binding floor
Reference: wild-type JUN-FOS pair
Direction: higher = stronger binding
Starting sequence: JUN, bZIP domain (human); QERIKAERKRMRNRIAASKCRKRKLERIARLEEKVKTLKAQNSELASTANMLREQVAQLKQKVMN; partner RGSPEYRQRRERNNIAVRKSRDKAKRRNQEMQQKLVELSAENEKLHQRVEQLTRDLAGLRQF
Variant	binding fitness [natural log]
K39H	-1.39
L45F	-1.49
A29V	-1.41
I28K	-1.25
E33M	-1.38
A29L	-1.44
K34D	-1.45
R30H	-1.35
E44Q	-1.43
L45S	-1.44
A40F	-1.27
L59A	-1.31
S43Y	-1.46
A29H	-1.36
A40C	-1.45
A29G	-1.35
I28F	-1.33

Series 6
Target: Histone acetyltransferase KAT6A, both winged helices, GST fusion (KAT6A, Homo sapiens, UniProt Q92794, residues 1-181)
Technique: protein binding microarray
Molecule type: double-stranded DNA, one strand shown
Sample: in vitro
Tested at: not given
Setting: 8-mer, flanks averaged, mean of 2 arrays, mostly near background
Reference: not given
Direction: higher = stronger binding
Construct (chain): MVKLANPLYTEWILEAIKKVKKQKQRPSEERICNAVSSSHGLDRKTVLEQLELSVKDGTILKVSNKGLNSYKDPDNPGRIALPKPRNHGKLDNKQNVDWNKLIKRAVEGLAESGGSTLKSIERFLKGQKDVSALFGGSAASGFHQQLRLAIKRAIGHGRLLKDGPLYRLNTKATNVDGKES
Strand	E-score
ACTCCTAA	-0.0784
GAATCGAC	-0.00575
CCTTATCA	-0.0816
AGCTGAAC	-0.319
CACTTGGA	-0.175
CGGAGGGA	-0.082
AATACAGC	-0.141
GCAGTGAC	-0.0381
CCGCTACG	0.307
AGAGGAAA	-0.107
AATGTTGT	-0.0664
ACAAGATG	-0.134
GATCATCA	-0.096
ATGTAACG	0.0361
AGTCACTC	-0.172
AAGTTATA	-0.0857
CCCTTAAC	-0.138

A few entries again (series 6):
Strand	E-score
CGGAGGGA	-0.082
AATACAGC	-0.141
GCAGTGAC	-0.0381
CCGCTACG	0.307
AGAGGAAA	-0.107
AATGTTGT	-0.0664
ACAAGATG	-0.134
GATCATCA	-0.096
ATGTAACG	0.0361
AGTCACTC	-0.172
